Results gathered from unrelated publications.
Lines come from different studies, so protocols differ. ± gives the spread as reported.

| SMILES | cell line | assay | setting | scale | quantity | value |
| --- | --- | --- | --- | --- | --- | --- |
| CCCCCCCC/C=C\CCCCCCCCOP(O)(O)=S.N | human cord blood CD34+ cells | clonogenic | 1 µM, 4 h, from 30 min after irradiation, added: 6 Gy irradiation |  | colony count increase | 64% |
| CC(C)CC(O)(CC(C)C)c1cn(C(=O)N2CCCC2)nn1 | mouse T-cells | N-terminal labeled proteins, N-terminal enrichment proteomics, measured: PTPN18 | 1 nM, 6 h | reference: DMSO | SILAC ratio | 3.58 ± 0.45 |
| Cc1ccc(NCCN(C)CCNc2ccnc3cc(Cl)ccc23)c2c(=O)c3ccccc3sc12 | Vero E6 | autophagy | concentration not given, 16 h | reference: chloroquine | LC3B spot count increase | 80% |
| CC[C@H]1OC(=O)[C@H](C(C)C)NC(=O)[C@H](C)OC(=O)[C@@H](C(C)C)NC(=O)[C@@H](C(C)C)OC(=O)[C@H](C(C)C)NC(=O)[C@H](C)OC(=O)[C@@H](C(C)C)NC(=O)[C@@H](C(C)C)OC(=O)[C@H](C(C)C)NC(=O)[C@H](C)OC(=O)[C@@H](C(C)C)NC1=O | U-87 MG | Western blot, measured: ATP synthase beta | 5 and 10 µM, 48 h |  | protein level | no effect |
| CC/C=C\C/C=C\C/C=C\C/C=C\C/C=C\C/C=C\CCC(=O)Nc1ccn(C2OC(CO)C(O)C2(F)F)c(=O)n1 (stereo not drawn) | SW-620 | NCI60 screen |  |  | CC50 | 84400 nM |
| Cc1ccc(-n2nc3c(=O)n(CCCC(=O)NCC(C)c4ccccc4)nc(C)c3c2C)cc1 (stereo not drawn) | MIA PaCa-2 | annexin V/PI flow cytometry | 50 µM, 48 h |  | apoptotic cells | 28.6% |
| CC[C@@]1(OC(=O)CCC(=O)NCCCC[C@H](NC(=O)[C@H](Cc2ccccc2)NC(=O)[C@H](Cc2ccccc2)NC(=O)CCSC2=C(/C=C/C3=[N+](C)c4ccccc4C3(C)C)CCC/C2=C\C=C2\N(C)c3ccccc3C2(C)C)C(=O)N[C@@H](CCCCNC(=O)CCCC[C@@H]2SC[C@@H]3NC(=O)N[C@@H]32)C(=O)O)C(=O)OCc2c1cc1n(c2=O)Cc2cc3ccccc3nc2-1 | 4T1 | CCK-8 | 5 µM, 6 h then 24 h, added: 808 nm laser 1 W/cm2 5 min | reference: untreated | viability | 45.3% |
| CC[C@H](C)[C@H](NC(=O)[C@@H](Cc1ccccc1)NC(=O)[C@@H](N)C(C)C)C(=O)N[C@@H](C)C(N)=O | PC-12 | Aβ42-induced neurotoxicity, inhibitor, MTT | concentration not given, 6 h, 37 °C, peptide to Aβ42 1:2, added: Aβ42 2 µM | reference: untreated cells | viability | 92.9% |
| CCCCCCCCC[P+](c1ccccc1)(c1ccccc1)c1ccccc1 | HCT-116 | cell growth or viability, MTT | 72 h |  | GI50 | 77 nM |
| CC(C)C[C@H](NC(=O)[C@H](CCC(N)=O)NC(=O)CNC(=O)[C@H](Cc1c[nH]cn1)NC(=O)[C@H](CCC(N)=O)NC(=O)[C@H](CCCNC(=N)N)NC(=O)[C@H](CCCNC(=N)N)NC(=O)CNC(=O)CNC(=O)[C@H](CCCNC(=N)N)NC(=O)[C@H](CCCNC(=N)N)NC(=O)[C@H](CCCNC(=N)N)NC(=O)[C@H](CCC(N)=O)NC(=O)[C@H](CCCNC(=N)N)NC(=O)[C@H](CCCNC(=N)N)NC(=O)[C@H](CCCCN)NC(=O)[C@H](CCCCN)NC(=O)[C@H](CCCNC(=N)N)NC(=O)CN)C(=O)N[C@@H](Cc1c[nH]c2ccccc12)C(=O)N[C@@H](Cc1ccccc1)C(=O)N1CCC[C@H]1C(=O)N[C@@H](CCC(=O)O)C(=O)NCC(=O)N[C@@H](Cc1ccccc1)C(=O)O | TALL-1 | WST-8 | concentration not given, 24 h |  | viability | no effect |
| COC(=O)[C@H](CC(C)C)NC(=O)[C@@H]1CCCN1C(=O)[C@@H](NC(=O)[C@H](CCC(=O)C=[N+]=[N-])NC(=O)OCc1ccccc1)C(C)C | Huntington disease patient myoblasts | measured: cytochrome c | 50 µM, 2 h |  | mRNA level | increased |
| CCOP(=O)(OCC)OCCCCOC(=O)CC1=C(C)C(=Cc2ccc([S+](C)[O-])cc2)c2ccc(F)cc21 (stereo not drawn) | A549 parental | Annexin V/PI staining | concentration not given | reference: ρ0 A549 cells | apoptosis increase | 3.6 fold |
| O=C1/C(=C/c2ccc3c(c2)OCCO3)SC(=S)N1[C@@H]1O[C@H](CO)[C@@H](O)[C@H](O)[C@H]1O | HepG2 |  | IC50, 48 h | reference: untreated | apoptotic cell death | 65.6 fold |
| CC(=O)Oc1ccccc1/C=C/C(=O)Nc1nc(=O)n([C@@H]2O[C@H](C)[C@@H](OC(C)=O)[C@H]2OC(C)=O)cc1F | ASPC1 | cell viability, MTT |  | reference: NHDF fibroblasts over ASPC1 | selectivity index | 1.42 |
| C[C@H]1C(OCCCCCCCC[P+](c2ccccc2)(c2ccccc2)c2ccccc2)O[C@@H]2O[C@@]3(C)CCC4[C@H](C)CCC1[C@]42OO3 (stereo partly drawn) | J82 and T24 | western blot, measured: CDK6 | concentration not given, 48 h |  | protein level | decreased |
| NC(=O)CCCCC=C1C(=O)OC1CCc1ccccc1 (stereo not drawn) | ABHD16A-/- mouse peritoneal macrophages | ELISA | 1 µM, 4 h, added: basal or LPS |  | IL-6 and TNF-α secretion | no effect |
| C#CCCCNCCNc1ccnc2cc(Cl)ccc12 | HL-60 | cell growth or viability, resazurin | 10 µM, 48 h |  | inhibition | 8.1% |
| C[C@H]1C(OCCCC[P+](c2ccccc2)(c2ccccc2)c2ccccc2)O[C@@H]2O[C@@]3(C)CCC4[C@H](C)CCC1[C@]42OO3 (stereo partly drawn) | T24 | MTT | 72 h | reference: HUVEC IC50 over T24 IC50 | selectivity index | 1.39 |
| CC(=O)N1CCCC[C@H]1C(=O)NC(C)(C)C(=O)N1CCCC[C@H]1C(=O)NC(C)(C)C(=O)NC(C)(C)C(=O)N[C@@H](CC(C)C)C(=O)NCCC(=O)NCC(=O)NC(C)(C)C(=O)NC(C)(C)C(=O)N1CCCC[C@H]1C(=O)NC(C)(C)C(=O)NCC(=O)N[C@@H](CC(C)C)C(=O)NC(C)(C)C(=O)N[C@@H](CC(C)C)C[N+]1=C2CCCN2CCC1 | MCF-10A | cell growth or viability, SRB | 48 h |  | GI50 | 326 nM |
| CC(=O)N[C@@H](Cc1c[nH]c2ccccc12)C(=O)N[C@@H](CCC(=O)O)C(=O)N[C@@H](C)C(=O)N[C@@H](CC(=O)O)C(=O)COC(=O)c1c(C)cccc1C | THP-1 FKBP-caspase-11 | LDH release | 10 µM, added: B/B 50 nM |  | pyroptosis | decreased |
| CCC[P+](c1ccccc1)(c1ccccc1)c1ccccc1 | HCT-116 | cell growth or viability, MTT | 72 h |  | GI50 | 1500 nM |

A few entries again:
| SMILES | cell line | assay | setting | scale | quantity | value |
| --- | --- | --- | --- | --- | --- | --- |
| CC[C@H]1OC(=O)[C@H](C(C)C)NC(=O)[C@H](C)OC(=O)[C@@H](C(C)C)NC(=O)[C@@H](C(C)C)OC(=O)[C@H](C(C)C)NC(=O)[C@H](C)OC(=O)[C@@H](C(C)C)NC(=O)[C@@H](C(C)C)OC(=O)[C@H](C(C)C)NC(=O)[C@H](C)OC(=O)[C@@H](C(C)C)NC1=O | U-87 MG | Western blot, measured: ATP synthase beta | 5 and 10 µM, 48 h |  | protein level | no effect |
| C[C@H]1C(OCCCCCCCC[P+](c2ccccc2)(c2ccccc2)c2ccccc2)O[C@@H]2O[C@@]3(C)CCC4[C@H](C)CCC1[C@]42OO3 (stereo partly drawn) | J82 and T24 | western blot, measured: CDK6 | concentration not given, 48 h |  | protein level | decreased |
